Assay results pooled from the literature.
Every numbered part comes from another study and shows a few of its results, in no order. Changes are numbered by the printed parent chain.

Series 1
Target: Histone acetyltransferase KAT6A, winged helix 2, GST fusion (KAT6A, Homo sapiens, UniProt Q92794, residues 85-181)
Technique: protein binding microarray
Molecule type: double-stranded DNA, one strand shown
Sample: in vitro
Tested at: not given
Notes: 8-mer, flanks averaged, mean of 2 arrays, mostly near background
Relative to: not given
Direction: higher = stronger binding
Residues (chain): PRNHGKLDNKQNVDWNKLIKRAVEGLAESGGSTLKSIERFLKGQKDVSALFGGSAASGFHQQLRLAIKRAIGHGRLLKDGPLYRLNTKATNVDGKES
`GTGACAAA` has an E-score of -0.0134.
With `ATGCGATG` the E-score was -0.106.
`CATCGTGC` gave an E-score of 0.0601.
With `AATCTAAG` the E-score was 0.0254.
For `ATTGCAAA`, the E-score was 0.00458.
`AACGCAAT` has an E-score of 0.0366.
The E-score of `ACCATCTG` is reported as -0.0603.
`CTTTAATA` gave an E-score of 0.0916.
The E-score of `ACCTCTTG` is reported as -0.0161.
The E-score of `ACGAACAC` is reported as 0.135.
For `AAACAGTA`, the E-score was -0.0752.
`ATATAGAG` gave an E-score of -0.182.
With `GCCCAGAC` the E-score was -0.114.
For `TGCTACAA`, the E-score was 0.141.
With `GTATACAC` the E-score was 0.0873.
With `TAAGATCA` the E-score was -0.0134.
`CAATTGAA` gave an E-score of -0.155.
With `ACGGTGCA` the E-score was -0.0394.
`GACTAAAA` gave an E-score of 0.00396.
`CCGCTGGC` has an E-score of 0.177.
`CGGTGCAG` has an E-score of 0.0847.
The E-score of `CGCTCTGC` is reported as 0.123.
The E-score of `AGAAATGG` is reported as -0.184.
With `AACTTTGG` the E-score was -0.0713.
For `CCAGGACA`, the E-score was -0.145.

Series 2
Target: Interferon regulatory factor 3, full length, phosphomimetic (IRF3, Homo sapiens, UniProt Q14653, residues 1-427, S386D/S396D/S398D/S402D/T404D/S405D)
UniProt Q14653, sequence (whole entry, unmodified, looked up): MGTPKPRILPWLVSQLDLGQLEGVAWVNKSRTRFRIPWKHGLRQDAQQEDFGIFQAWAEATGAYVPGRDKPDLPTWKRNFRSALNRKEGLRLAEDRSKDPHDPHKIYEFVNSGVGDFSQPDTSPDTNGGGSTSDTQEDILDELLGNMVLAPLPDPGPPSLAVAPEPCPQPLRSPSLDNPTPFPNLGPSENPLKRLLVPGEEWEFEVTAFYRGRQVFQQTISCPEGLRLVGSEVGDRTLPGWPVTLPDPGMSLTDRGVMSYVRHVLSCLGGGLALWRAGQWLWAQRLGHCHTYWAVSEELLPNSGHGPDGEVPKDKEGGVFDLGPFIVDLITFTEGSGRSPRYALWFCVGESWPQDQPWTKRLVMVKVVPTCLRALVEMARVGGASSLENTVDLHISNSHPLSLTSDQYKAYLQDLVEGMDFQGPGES
Technique: protein-binding microarray
Molecule type: double-stranded DNA, one strand shown
Sample: in vitro
Tested at: 2540 nM top
Notes: 60-bp whole probe
With: salmon DNA 0.4 mg/ml
Relative to: random background probes
Direction: higher = stronger binding
Shared flanks, not repeated: GCCTAGCAC … GTCTTGATTCGCTTGACGCTGCTG
Under “fitted relative affinity”, `TCAGTTCTGCTTCTTAGACTGTGCTAG` is recorded as 1.87 z-score.
`GACGAACTGGGGTTCCGAGACGTGCTA` — result for “fitted relative affinity”: -0.383 z-score.
`TCATATTTATGTATACAACTGTGCTAG`: “fitted relative affinity” 0.946 z-score.
Under “fitted relative affinity”, `TCATGTTTGGCCCTGAAACTGTGCTAG` is recorded as -0.331 z-score.
`GACGGACTGCTTTACCTGACGTGCTAG`: “fitted relative affinity” -0.14 z-score.
`AACGGACTGGGGACTGGGGACGTGCTA`: “fitted relative affinity” -0.892 z-score.
Under “fitted relative affinity”, `AAGTTTTTATTTTCTGAATGGTGCTAG` is recorded as 3.28 z-score.
`CCAAACCTGTGCGCCGTGCCGTGCTAG` — result for “fitted relative affinity”: 0.255 z-score.
For `TTAGGATTGGGGTATCGGTTAGTGCTA`, “fitted relative affinity” read 0.174 z-score.
For `GACGGACTGGATTTCGGGACGTGCTAG`, “fitted relative affinity” read 0.0335 z-score.
For `TCATTTTTTTTTTTTTGACTGTGCTAG`, “fitted relative affinity” read 1.13 z-score.
Under “fitted relative affinity”, `TTAGGAATGGACACTGGGTTAGTGCTA` is recorded as -0.417 z-score.
Under “fitted relative affinity”, `TTTGATCTCAGTCTCGATTAGTGCTAG` is recorded as 0.722 z-score.
`TTAGGTTTCAGACTGGGTTAGTGCTAG`: “fitted relative affinity” 2.19 z-score.
For `TTAGGACTCGGACTGGGTTAGTGCTAG`, “fitted relative affinity” read -0.781 z-score.
For `TTTTTTTTTTTTTTTTACTTGTGCTAG`, “fitted relative affinity” read 1.61 z-score.
`TCAAAAATGCCCTTTTGGACTGTGCTA`: “fitted relative affinity” 1.24 z-score.
For `AGCCGAACAGCAATCGGATGGTGCTAG`, “fitted relative affinity” read -0.00515 z-score.
`CTTCTTTTGCTAATTTTTTTGTGCTAG`: “fitted relative affinity” 2.77 z-score.

Series 3
Target: XBP1, bZIP domain (human)
Technique: DHFR protein complementation
Sample: yeast
Notes: single substitutions, most at no-binding floor
Relative to: wild-type JUN-FOS pair
Direction: higher = stronger binding
Starting sequence: JUN, bZIP domain (human); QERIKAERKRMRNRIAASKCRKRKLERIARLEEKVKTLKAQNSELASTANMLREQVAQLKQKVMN; partner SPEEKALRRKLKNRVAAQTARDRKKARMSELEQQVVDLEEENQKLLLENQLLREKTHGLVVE
The binding fitness of `E44I` is reported as -0.932 natural log.
`V56D` has a binding fitness of -0.945 natural log.
For `L31Q`, the binding fitness was -1.44 natural log.
The binding fitness of `A49S` is reported as -1.16 natural log.
The binding fitness of `E32K` is reported as -1.27 natural log.
`M51W` gave a binding fitness of -0.836 natural log.
`K34T` gave a binding fitness of -1.05 natural log.
`E33K` gave a binding fitness of -1.22 natural log.
For `K39Q`, the binding fitness was -0.864 natural log.
The binding fitness of `K36A` is reported as -0.433 natural log.
For `T48K`, the binding fitness was -0.886 natural log.
`T37E` has a binding fitness of -0.412 natural log.
For `A29Q`, the binding fitness was -0.837 natural log.
With `S47C` the binding fitness was -0.807 natural log.
The binding fitness of `R30G` is reported as -0.96 natural log.
`V35G` has a binding fitness of -1.4 natural log.
The binding fitness of `E44V` is reported as -0.826 natural log.
The binding fitness of `K39T` is reported as -0.953 natural log.
For `T37L`, the binding fitness was -0.587 natural log.
`A46N` has a binding fitness of -0.836 natural log.
For `L52H`, the binding fitness was -1.34 natural log.
The binding fitness of `L31E` is reported as -1.51 natural log.
With `T37I` the binding fitness was -0.651 natural log.
`Q41F` has a binding fitness of -1.49 natural log.

Series 4
Target: Ras GTPase-activating protein-binding protein 1, full length (G3BP1, Homo sapiens, UniProt Q13283)
UniProt Q13283, sequence (whole entry, looked up): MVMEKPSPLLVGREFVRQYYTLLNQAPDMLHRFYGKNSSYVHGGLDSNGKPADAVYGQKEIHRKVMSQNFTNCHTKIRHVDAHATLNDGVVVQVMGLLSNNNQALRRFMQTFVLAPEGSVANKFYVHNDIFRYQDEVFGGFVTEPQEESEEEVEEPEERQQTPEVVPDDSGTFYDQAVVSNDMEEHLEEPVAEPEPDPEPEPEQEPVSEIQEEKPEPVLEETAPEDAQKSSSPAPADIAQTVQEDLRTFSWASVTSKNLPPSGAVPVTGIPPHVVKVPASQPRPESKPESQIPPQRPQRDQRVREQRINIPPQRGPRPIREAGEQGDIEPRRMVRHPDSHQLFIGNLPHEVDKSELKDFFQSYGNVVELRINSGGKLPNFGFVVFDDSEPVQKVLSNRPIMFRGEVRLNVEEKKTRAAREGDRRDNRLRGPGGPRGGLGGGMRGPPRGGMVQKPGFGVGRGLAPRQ
Technique: RNA Bind-n-Seq
Molecule type: RNA
Sample: in vitro
Tested at: 200 nM
Notes: whole 134-nt RNA, ends assumed
With: 150 mM KCl
Relative to: input library
Direction: higher = stronger binding
For `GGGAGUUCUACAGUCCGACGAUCUGGGAGGUGGAUUUUGUUUAUUUUUUUAGCUCAUUUCCAGGGGUGGGAAUUUUUUUUUAAUAUGUGUCAUGAAUAAAGUUGUCUUUGAAAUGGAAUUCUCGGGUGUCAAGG`, the log2 enrichment was 0.756.
For `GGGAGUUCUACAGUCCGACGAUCCUCAAGUCCUGUGCUACACAUCGUAUGUACCGAAUCGGUUUGGAGGAAAAAGGAAAGUAUUAUGUUACGCCGUUCGGAUCUGCACUUCCAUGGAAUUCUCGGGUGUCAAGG`, the log2 enrichment was -0.243.
The log2 enrichment of `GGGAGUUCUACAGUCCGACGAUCGCAGGAAGUAAAAACAAAUGGAAAUGCUUCGGAUAGUGGCACGGGUGGGGGUUGCUAAGGAAAGGGUGGGAUGGGAGUGGGUAAAGAGUUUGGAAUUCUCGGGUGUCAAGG` is reported as 0.867.
With `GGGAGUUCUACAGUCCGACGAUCAGUCCUGUGCUACACAUCGUAUGUACCGAAUCGGGGUUUGGGGUGGGGUUUUUGGGGAAAGUAUUAUGUUACGCCGUUCGGAUCUGCACUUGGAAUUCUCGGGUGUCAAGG` the log2 enrichment was 0.334.
With `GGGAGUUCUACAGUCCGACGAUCCCUGUGCUACACAUCGUAUGUACCGAAUCGGGAAAAAAGGGAAAAAAGGGAAAAAAGGGGAAAGUAUUAUGUUACGCCGUUCGGAUCUGCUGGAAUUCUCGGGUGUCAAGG` the log2 enrichment was -0.532.
For `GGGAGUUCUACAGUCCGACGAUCUCCUGUGCUACACAUCGUAUGUACCGAAUCGGGGAAAGGGGAAAAAGGGGUUUUUGGGGAAAGUAUUAUGUUACGCCGUUCGGAUCUGCAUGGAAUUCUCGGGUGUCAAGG`, the log2 enrichment was 0.783.
`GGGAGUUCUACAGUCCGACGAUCACCAUGCAGGUGGGCAUCUUUGGGAAGUGGGGCAAGGGGGGGAUAGGGAGGGGGGUAACACUUUGGCAACAGGUGGUCCCAGGUCGUUUCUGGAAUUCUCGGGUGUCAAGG` has a log2 enrichment of 0.95.
With `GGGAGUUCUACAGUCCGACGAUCCCUCAAGUCCUGUGCUACACAUCGUAUGUACCGAAUCGGGGUGGGUGGUGGGGAAAGUAUUAUGUUACGCCGUUCGGAUCUGCACUUCCAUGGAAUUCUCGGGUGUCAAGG` the log2 enrichment was 0.972.
`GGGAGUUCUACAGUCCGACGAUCACCAUGCAAAAGGGCAUCUUUGGGAAGUGGGGCAAGGGGGGGAUAGGGAGGGGGGUAACACUUUGGGAACAGGUGGUCCCAGGUCGUUUCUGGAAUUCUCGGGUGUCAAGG` has a log2 enrichment of 1.06.

Excerpt of the above (series 3):
`M51W` gave a binding fitness of -0.836 natural log.
`K34T` gave a binding fitness of -1.05 natural log.
`E33K` gave a binding fitness of -1.22 natural log.
For `K39Q`, the binding fitness was -0.864 natural log.
The binding fitness of `K36A` is reported as -0.433 natural log.
For `T48K`, the binding fitness was -0.886 natural log.
`T37E` has a binding fitness of -0.412 natural log.
For `A29Q`, the binding fitness was -0.837 natural log.
With `S47C` the binding fitness was -0.807 natural log.
The binding fitness of `R30G` is reported as -0.96 natural log.
`V35G` has a binding fitness of -1.4 natural log.
